# Assay results pooled from the literature.
# Compare with care: the assays were run in different laboratories. Values joined by “and” are separate records of one study, mostly repeats; a detail may differ. ± gives the spread as reported.
SMILES,organism,assay,system,setting,scale,quantity,value
COc1ccc2nc(C)cc(OCC(=O)Nc3ccccc3OC)c2c1,Mycobacterium tuberculosis,"bacterial growth, inhibitor",mmpL3-TetON,,,IC50,1010 nM
Cc1cc(Oc2nc(N3CC[C@@H](c4ccncc4)C3)ncc2F)[nH]n1,Mycobacterium tuberculosis,OD,H37Rv PurF CRISPRi knockdown,"0.000122 µM, added: anhydrotetracycline low",,normalised growth,90% and 95%
CCC(CO)NCCNC(CC)CO.O=C(CN1C(=O)CSC1=O)Oc1ccc(C=NNC(=O)c2ccccn2)cc1Br,Mycobacterium tuberculosis,two-drug checkerboard,H37Rv,"concentration not given, unit not given",lower means more synergy,FICI,2
Cc1ccc(-c2nc3ccc(C)cn3c2C(=O)C(=O)NCc2ccc(N(C)C)cc2)cc1,Mycolicibacterium vaccae,microbial growth,IMET10670,2 mM,,inhibition zone,19 mm
Cc1cc(NCCc2ccccc2)nc(/N=C(\N)Nc2ccc(Cl)cc2)n1,Mycobacterium tuberculosis,"bacterial growth, inhibitor",mmpL3-TetON,,,IC50,280 nM
CC[C@H](C)[C@H](NC(=O)[C@@H]1CCCN1C(=O)CNC(=O)[C@H](CC(N)=O)NC(=O)CNC(=O)[C@H](CC(=O)O)NC(=O)[C@@H]1CCC(=O)O[C@H](C)[C@H](NC(=O)[C@@H](NC(=O)[C@H](Cc2ccccc2)NC(=O)[C@@H](NC(=O)[C@H](CCCCN)NC(=O)CNC(=O)[C@H](CC(=O)O)NC(=O)CNC(=O)[C@@H](NC(=O)CNC(=O)[C@H](CC(=O)O)NC(=O)[C@@H]2CCC(=O)O[C@H](C)[C@H](NC(=O)[C@@H](NC(=O)[C@H](CC(C)C)NC(=O)[C@H](CCCCN)NC(=O)[C@H](Cc3ccccc3)NC(=O)[C@H](CC(=O)O)NC(=O)CNC(=O)[C@H](CCCCN)NC(=O)[C@H](CC(C)C)NC(=O)[C@H](CO)NC(=O)CN)C(C)C)C(=O)N[C@@H](CCSC)C(=O)N[C@@H](CCCCN)C(=O)N[C@@H](C(C)C)C(=O)N3CCC[C@H]3C(=O)N2)C(C)C)C(C)C)[C@@H](C)O)C(=O)N[C@@H](C)C(=O)N[C@@H](CC(C)C)C(=O)NCC(=O)N1)C(=O)N[C@@H](Cc1ccc(O)cc1)C(=O)N[C@@H]1C(=O)N[C@@H]2C(=O)N[C@@H](CCC(N)=O)C(=O)N[C@@H](C)C(=O)N[C@@H](C(C)C)C(=O)NCC(=O)N[C@@H](CCC(=O)O[C@@H]2C)C(=O)N[C@H](C(=O)NCC(=O)NCC(=O)N[C@@H](CC(=O)O)C(=O)N[C@@H](CC(C)C)C(=O)N2CCC[C@H]2C(=O)N2CCC[C@H]2C(=O)N[C@@H](CC(C)C)C(=O)N[C@@H](Cc2ccccc2)C(=O)O)CCC(=O)O[C@@H]1C,lymphocytic choriomeningitis virus,viral replication,,,,IC50,> 100000 nM
CCc1ccn2c(C(=O)NC(C)c3ccccc3)c(C)nc2c1 (centres unmarked),Mycolicibacterium vaccae,microbial growth,IMET10670,2 mM,,inhibition zone,27 mm
Cc1c(CC(=O)N[C@@H](Cc2ccccc2)C(=O)N(C)c2ccccc2)c2ccccc2n1C(C)C,HIV-1,viral infection,,,,EC50,390 ± 40 nM
Cc1ccc(CNC(=O)C(=O)c2c(C)nc3ccc(C)cn23)cc1,Mycolicibacterium vaccae,microbial growth,IMET10670,2 mM,,inhibition zone,24 mm
Cc1ccc(NS(=O)(=O)c2c(C(=O)N3CCCCCC3)c(C)n(C)c2C)c(Cl)c1,Human alphaherpesvirus 1,viral infection,HaCaT,"1.235 µM, 36 h",relative to: untreated,infection,99.9% and 93.4% and 98.7%
CN(C(=O)[C@H](Cc1ccccc1)NC(=O)Cc1c[nH]c2ccc(O)cc12)c1ccccc1,HIV-1,viral infection,,,,EC50,57 ± 5 nM
COc1cc(CN2CCC3(C=Cc4ccccc43)CC2)cc2c1OCO2,Mycobacterium tuberculosis,bacterial growth,,,,IC50,500 nM
CCc1ccn2c(C(=O)N(C)Cc3ccccc3)c(C)nc2c1,Mycolicibacterium vaccae,microbial growth,IMET10670,2 mM,,inhibition zone,22 mm
O=C(C=Cc1cccs1)N1CCN(Cc2ccc3c(c2)OCO3)CC1,Mycobacterium tuberculosis,microbial growth,,,,IC50,1690 nM
O=C(NCC(F)c1ccc(Cl)cc1Cl)c1cc(Cl)nnc1Oc1cccc(C2CC2)c1 (centres unmarked),Botrytis cinerea,"fungal growth, inhibitor",B05.10 wild type,168 h,,EC50,7.8 ± 0.9 nM
NNC(=O)c1ccncc1.O=C(CN1C(=O)CSC1=O)Oc1ccc(C=NNC(=O)c2ccncc2)cc1,Mycobacterium tuberculosis,two-drug checkerboard,H37Rv,"concentration not given, unit not given",lower means more synergy,FICI,1.5
Cc1ccc(C2CC(C(F)(F)F)n3ncc(C(=O)NCc4ccc5c(c4)OCO5)c3N2)cc1 (centres unmarked),Mycobacterium tuberculosis,"bacterial growth, inhibitor",mmpL3-TetON,,,IC50,< 97 nM
CCC(CO)NCCNC(CC)CO.COC(=O)C=C1SC(=NN=Cc2ccc(OC(=O)CN3C(=O)CSC3=O)cc2)NC1=O,Mycobacterium tuberculosis,two-drug checkerboard,H37Rv,"concentration not given, unit not given",lower means more synergy,FICI,2
Cc1ccccc1CN1CCC(O)(c2ccc(Cl)c(C(F)(F)F)c2)CC1,Mycobacterium tuberculosis,bacterial growth,,,,IC50,360 nM
CC(C)CC(C(=O)N1CC2(CC1C#N)C(=O)Nc1ccccc12)N(C)C(=O)c1cc2c(F)cc(F)c(F)c2[nH]1 (centres unmarked),Human coronavirus 229E,cytopathic effect,MRC5,33.83 nM,,inhibition,100%

# A few entries again:
SMILES,organism,assay,system,setting,scale,quantity,value
Cc1ccccc1CN1CCC(O)(c2ccc(Cl)c(C(F)(F)F)c2)CC1,Mycobacterium tuberculosis,bacterial growth,,,,IC50,360 nM
CCC(CO)NCCNC(CC)CO.COC(=O)C=C1SC(=NN=Cc2ccc(OC(=O)CN3C(=O)CSC3=O)cc2)NC1=O,Mycobacterium tuberculosis,two-drug checkerboard,H37Rv,"concentration not given, unit not given",lower means more synergy,FICI,2
Cc1ccc(CNC(=O)C(=O)c2c(C)nc3ccc(C)cn23)cc1,Mycolicibacterium vaccae,microbial growth,IMET10670,2 mM,,inhibition zone,24 mm
